Published values collected from several papers.
Every numbered part comes from another study and shows a few of its results, in no order.
UniProt O14920, sequence (whole entry, looked up): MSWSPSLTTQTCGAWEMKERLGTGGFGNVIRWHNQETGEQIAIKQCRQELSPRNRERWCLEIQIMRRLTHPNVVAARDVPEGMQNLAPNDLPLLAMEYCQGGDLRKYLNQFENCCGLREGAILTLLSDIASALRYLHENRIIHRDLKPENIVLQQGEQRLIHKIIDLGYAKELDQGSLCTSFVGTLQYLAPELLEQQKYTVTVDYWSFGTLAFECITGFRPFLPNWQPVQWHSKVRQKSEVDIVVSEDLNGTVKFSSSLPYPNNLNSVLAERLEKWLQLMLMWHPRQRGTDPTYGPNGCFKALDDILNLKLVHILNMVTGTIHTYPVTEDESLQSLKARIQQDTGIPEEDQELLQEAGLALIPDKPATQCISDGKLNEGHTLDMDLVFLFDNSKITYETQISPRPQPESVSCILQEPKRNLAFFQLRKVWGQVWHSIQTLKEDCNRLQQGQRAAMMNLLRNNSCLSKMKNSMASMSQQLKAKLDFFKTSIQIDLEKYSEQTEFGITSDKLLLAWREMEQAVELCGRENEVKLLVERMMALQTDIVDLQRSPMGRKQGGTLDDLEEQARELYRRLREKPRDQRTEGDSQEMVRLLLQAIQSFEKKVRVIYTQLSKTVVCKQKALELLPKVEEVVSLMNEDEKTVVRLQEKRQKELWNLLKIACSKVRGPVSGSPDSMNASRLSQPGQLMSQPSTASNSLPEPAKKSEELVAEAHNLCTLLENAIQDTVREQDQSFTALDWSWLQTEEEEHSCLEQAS
UniProt Q9BQI3, sequence (whole entry, looked up): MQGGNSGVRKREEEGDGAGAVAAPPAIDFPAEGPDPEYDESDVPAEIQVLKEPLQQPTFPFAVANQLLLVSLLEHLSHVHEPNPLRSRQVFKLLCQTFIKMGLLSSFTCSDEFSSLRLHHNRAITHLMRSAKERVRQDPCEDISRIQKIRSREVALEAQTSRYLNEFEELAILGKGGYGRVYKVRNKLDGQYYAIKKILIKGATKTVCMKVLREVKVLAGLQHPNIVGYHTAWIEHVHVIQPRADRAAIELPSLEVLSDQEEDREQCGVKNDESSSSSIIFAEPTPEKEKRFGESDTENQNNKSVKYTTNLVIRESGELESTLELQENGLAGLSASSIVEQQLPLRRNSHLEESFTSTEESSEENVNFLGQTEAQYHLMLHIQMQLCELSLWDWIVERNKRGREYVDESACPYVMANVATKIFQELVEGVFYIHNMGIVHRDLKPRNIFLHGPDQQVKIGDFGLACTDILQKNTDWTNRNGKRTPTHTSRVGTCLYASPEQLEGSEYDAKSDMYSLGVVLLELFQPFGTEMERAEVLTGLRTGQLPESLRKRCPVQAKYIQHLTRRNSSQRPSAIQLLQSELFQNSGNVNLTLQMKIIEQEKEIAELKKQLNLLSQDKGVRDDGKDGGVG
UniProt Q96D53, sequence (whole entry, looked up): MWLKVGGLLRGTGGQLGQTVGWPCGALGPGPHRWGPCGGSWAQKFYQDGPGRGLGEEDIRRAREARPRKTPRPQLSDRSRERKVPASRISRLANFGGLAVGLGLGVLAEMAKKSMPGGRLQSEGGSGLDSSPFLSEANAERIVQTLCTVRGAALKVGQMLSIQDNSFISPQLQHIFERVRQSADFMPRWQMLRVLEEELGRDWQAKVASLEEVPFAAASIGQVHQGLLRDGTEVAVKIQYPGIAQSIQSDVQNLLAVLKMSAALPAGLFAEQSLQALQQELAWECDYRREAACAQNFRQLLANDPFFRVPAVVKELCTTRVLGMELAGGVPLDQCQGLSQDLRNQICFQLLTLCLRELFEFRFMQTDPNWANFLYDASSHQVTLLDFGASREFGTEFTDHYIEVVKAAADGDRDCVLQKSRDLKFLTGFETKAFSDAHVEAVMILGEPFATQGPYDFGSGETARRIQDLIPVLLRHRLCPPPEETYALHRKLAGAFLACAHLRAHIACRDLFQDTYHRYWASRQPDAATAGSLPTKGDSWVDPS
UniProt P22607, sequence (whole entry, unmodified, looked up): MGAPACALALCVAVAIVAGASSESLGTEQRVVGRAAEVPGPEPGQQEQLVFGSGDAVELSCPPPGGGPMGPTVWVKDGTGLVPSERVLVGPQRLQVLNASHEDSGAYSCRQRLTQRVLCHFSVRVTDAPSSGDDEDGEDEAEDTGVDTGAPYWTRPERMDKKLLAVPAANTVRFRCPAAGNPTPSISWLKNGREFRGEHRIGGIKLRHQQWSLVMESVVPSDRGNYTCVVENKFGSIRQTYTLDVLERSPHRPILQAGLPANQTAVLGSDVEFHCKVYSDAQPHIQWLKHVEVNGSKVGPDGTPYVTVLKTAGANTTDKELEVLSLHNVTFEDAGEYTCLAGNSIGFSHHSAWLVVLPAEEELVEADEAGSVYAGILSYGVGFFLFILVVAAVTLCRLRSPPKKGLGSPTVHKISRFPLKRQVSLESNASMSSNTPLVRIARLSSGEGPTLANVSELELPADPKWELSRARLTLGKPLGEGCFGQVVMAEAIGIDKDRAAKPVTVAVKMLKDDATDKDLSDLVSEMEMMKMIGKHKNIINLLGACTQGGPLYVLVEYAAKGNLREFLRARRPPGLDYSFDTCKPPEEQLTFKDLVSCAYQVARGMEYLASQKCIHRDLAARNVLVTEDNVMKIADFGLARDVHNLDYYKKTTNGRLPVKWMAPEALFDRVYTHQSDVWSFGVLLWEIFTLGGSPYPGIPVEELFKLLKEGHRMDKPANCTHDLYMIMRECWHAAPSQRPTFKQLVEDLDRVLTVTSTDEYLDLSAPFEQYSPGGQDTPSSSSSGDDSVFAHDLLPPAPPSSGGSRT
UniProt Q99759, sequence (whole entry, looked up): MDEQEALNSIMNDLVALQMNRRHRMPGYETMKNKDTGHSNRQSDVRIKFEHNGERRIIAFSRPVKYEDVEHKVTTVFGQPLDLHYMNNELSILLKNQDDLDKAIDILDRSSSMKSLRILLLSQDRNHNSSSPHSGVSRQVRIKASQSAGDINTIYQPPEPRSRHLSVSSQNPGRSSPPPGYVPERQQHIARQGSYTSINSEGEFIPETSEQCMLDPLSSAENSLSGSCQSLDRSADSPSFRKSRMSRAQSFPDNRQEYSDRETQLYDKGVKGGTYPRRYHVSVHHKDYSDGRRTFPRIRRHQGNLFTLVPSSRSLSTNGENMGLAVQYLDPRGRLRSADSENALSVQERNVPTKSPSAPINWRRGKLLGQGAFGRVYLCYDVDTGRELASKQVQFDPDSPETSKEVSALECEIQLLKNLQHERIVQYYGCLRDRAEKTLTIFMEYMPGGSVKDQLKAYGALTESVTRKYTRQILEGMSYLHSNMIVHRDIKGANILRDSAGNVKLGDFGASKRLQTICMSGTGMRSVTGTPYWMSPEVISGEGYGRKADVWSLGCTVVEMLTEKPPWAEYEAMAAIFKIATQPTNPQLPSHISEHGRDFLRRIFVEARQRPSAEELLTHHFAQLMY
UniProt Q8NEV4, sequence (whole entry, looked up): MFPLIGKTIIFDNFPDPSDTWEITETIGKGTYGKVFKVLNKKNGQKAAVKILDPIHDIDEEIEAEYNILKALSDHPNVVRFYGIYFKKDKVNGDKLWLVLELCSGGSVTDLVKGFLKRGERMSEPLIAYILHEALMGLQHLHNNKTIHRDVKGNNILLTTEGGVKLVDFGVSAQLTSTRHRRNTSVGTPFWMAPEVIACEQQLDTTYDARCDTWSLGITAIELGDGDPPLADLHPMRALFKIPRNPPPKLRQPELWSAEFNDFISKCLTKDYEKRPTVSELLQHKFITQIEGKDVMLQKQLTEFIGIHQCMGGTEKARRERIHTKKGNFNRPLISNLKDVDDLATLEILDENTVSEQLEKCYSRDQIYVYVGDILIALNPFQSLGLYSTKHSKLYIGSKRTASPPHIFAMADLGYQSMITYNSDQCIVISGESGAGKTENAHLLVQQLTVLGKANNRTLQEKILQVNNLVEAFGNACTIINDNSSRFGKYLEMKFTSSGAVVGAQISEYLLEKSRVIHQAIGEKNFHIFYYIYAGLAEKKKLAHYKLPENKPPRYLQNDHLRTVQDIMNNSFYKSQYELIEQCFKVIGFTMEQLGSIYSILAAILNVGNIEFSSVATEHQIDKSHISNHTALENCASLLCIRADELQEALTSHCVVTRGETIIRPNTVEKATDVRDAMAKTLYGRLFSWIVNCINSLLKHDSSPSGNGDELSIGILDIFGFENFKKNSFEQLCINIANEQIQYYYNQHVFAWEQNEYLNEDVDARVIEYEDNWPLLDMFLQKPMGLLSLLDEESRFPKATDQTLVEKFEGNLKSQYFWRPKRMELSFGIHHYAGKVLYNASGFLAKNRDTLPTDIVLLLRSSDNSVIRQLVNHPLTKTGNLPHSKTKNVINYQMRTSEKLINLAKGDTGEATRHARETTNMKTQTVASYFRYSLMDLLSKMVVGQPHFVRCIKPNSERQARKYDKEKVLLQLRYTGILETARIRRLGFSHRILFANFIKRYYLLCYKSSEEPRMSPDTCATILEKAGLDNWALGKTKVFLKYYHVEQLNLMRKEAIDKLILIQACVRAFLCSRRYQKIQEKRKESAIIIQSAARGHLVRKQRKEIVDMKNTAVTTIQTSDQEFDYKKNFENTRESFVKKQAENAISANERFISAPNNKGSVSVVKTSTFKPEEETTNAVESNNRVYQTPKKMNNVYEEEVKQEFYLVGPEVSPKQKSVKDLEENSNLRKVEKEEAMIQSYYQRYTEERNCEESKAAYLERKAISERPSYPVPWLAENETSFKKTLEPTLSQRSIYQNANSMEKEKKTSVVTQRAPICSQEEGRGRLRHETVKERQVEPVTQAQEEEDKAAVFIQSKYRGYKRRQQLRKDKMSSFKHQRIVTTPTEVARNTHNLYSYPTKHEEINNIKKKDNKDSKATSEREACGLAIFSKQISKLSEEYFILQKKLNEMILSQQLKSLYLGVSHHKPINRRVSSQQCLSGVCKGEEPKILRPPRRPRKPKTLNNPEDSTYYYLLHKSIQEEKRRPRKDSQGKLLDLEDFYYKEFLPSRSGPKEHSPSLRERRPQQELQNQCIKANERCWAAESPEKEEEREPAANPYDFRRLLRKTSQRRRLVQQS

Study 1
Target: Diamine acetyltransferase 1 (Homo sapiens, UniProt P21673)
Mode: inhibitor
Tested at: 10 µM
Relative to: control
Quantity: remaining activity
Construct (P21673 1-171): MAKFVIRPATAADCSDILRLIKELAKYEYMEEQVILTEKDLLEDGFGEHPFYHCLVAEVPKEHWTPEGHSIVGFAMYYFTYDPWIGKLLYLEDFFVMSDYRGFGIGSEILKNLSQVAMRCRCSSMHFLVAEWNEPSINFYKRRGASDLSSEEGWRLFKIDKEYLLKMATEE
OC[C@@H](O)[C@@H](O)[C@H](O)[C@@H](O)CO: 90.9%
NC(=O)c1ccccc1: 92.2%
O=c1c(-c2ccc(O[C@@H]3O[C@H](CO)[C@@H](O)[C@H](O)[C@H]3O)cc2)coc2cc(O)cc(O)c12: 101%
COc1cc2oc(-c3ccc(O)cc3)cc(=O)c2c(O)c1[C@@H]1O[C@H](CO)[C@@H](O)[C@H](O)[C@H]1O[C@@H]1O[C@H](CO)[C@@H](O)[C@H](O)[C@H]1O: 91.3%
C[C@@H]1O[C@@H](O[C@@H]2C(=O)c3c(O)cc(O)cc3O[C@H]2c2cc(O)cc(O)c2)[C@H](O)[C@H](O)[C@H]1O: 104%
O=c1cc(-c2ccc(O)cc2)oc2c([C@@H]3O[C@H](CO)[C@@H](O)[C@H](O)[C@H]3O)c(O)cc(O)c12: 100%
COc1ccc(-c2cc(=O)c3c(OC)c(OC)c(OC)cc3o2)cc1OC: 96%
COc1cc(C(=O)O)cc(OC)c1O: 83.7%
COc1cc(/C=C/CO)ccc1O[C@@H]1O[C@H](CO)[C@@H](O)[C@H](O)[C@H]1O: 101%
O=C(O)CCCCCCCCC(=O)O: 103%
C[C@@H]1CC[C@]2(C(=O)O)CC[C@]3(C)C(=CC[C@@H]4[C@@]5(C)CC[C@H](O)C(C)(C)[C@@H]5CC[C@]43C)[C@@H]2[C@]1(C)O: 99.4%
NCCCC[C@H](N)C(=O)O: 97.9%

Study 2
Structure (SMILES): Fc1ccc(-c2nc3n(c2-c2ccncc2)CCS3)cc1
Effect on: enzyme activity
Mode: inhibitor
Tested at: 0.5 µM
Relative to: control
Quantity: remaining activity
STE20/SPS1-related proline-alanine-rich protein kinase (STK39, Homo sapiens, UniProt Q9UEW8): 103%
Calcium/calmodulin-dependent protein kinase type II subunit delta (CAMK2D, Homo sapiens, UniProt Q13557): 97.1%
Protein kinase C beta type, isoform beta-I (PRKCB, Homo sapiens, UniProt P05771): 94.2%
Serine/threonine-protein kinase Chk2 (CHEK2, Homo sapiens, UniProt O96017): 97.7%
Inhibitor of nuclear factor kappa-B kinase subunit beta (IKBKB, Homo sapiens, UniProt O14920): 105%
Inhibitor of nuclear factor kappa-B kinase subunit epsilon (IKBKE, Homo sapiens, UniProt Q14164): 101%
Mitogen-activated protein kinase kinase kinase 3 (MAP3K3, Homo sapiens, UniProt Q99759): 100%
Protein kinase C alpha type (PRKCA, Homo sapiens, UniProt P17252): 113%
Mitogen-activated protein kinase 9 (MAPK9, Homo sapiens, UniProt P45984): 90.6%

Study 3
Cell line: HaCaT
Tested at: 100 µM
Time: 60 h
Quantity: viability
CCCCS(=O)(=O)N[C@@H](Cc1ccc(OCCCCC2CCNCC2)cc1)C(=O)O: 115%
CN1CCC(=C2c3ccccc3CCn3c(C=O)cnc32)CC1: 126%
CC(=O)Nc1ccc(CC(=O)O)cc1: 160%
COc1cc2c(cc1O)[C@@H](Cc1ccc(O)c(Oc3ccc(C[C@@H]4c5cc(OC)c(OC)cc5CCN4C)cc3)c1)N(C)CC2: 22.2%

Study 4
Structure (SMILES): CC(=O)c1c(NS(C)(=O)=O)c2cc(-c3ccc(Cl)cc3)c(-c3ccc(Cl)cc3Cl)nc2n(C)c1=O
Effect on: cell-free assay
Method: competition with immobilised ligand
Tested at: 1 µM
Quantity: remaining binding
Fibroblast growth factor receptor 3 (FGFR3, Homo sapiens, UniProt P22607, G697C): 100%
Ephrin type-A receptor 3 (EPHA3, Homo sapiens, UniProt P29320): 92%
Myosin-IIIa (MYO3A, Homo sapiens, UniProt Q8NEV4): 88%
Serine/threonine-protein kinase MARK1 (MARK1, Homo sapiens, UniProt Q9P0L2): 100%
Mitogen-activated protein kinase 7 (MAPK7, Homo sapiens, UniProt Q13164): 92%
Mast/stem cell growth factor receptor Kit (KIT, Homo sapiens, UniProt P10721, V559D): 100%
Dual specificity testis-specific protein kinase 1 (TESK1, Homo sapiens, UniProt Q15569): 100%
Activin receptor type-1 (ACVR1, Homo sapiens, UniProt Q04771): 93%
Phosphatidylinositol 4,5-bisphosphate 3-kinase catalytic subunit gamma isoform (PIK3CG, Homo sapiens, UniProt P48736): 82%
Ephrin type-A receptor 6 (EPHA6, Homo sapiens, UniProt Q9UF33): 93%
Atypical kinase COQ8B, mitochondrial (COQ8B, Homo sapiens, UniProt Q96D53): 97%
Inhibitor of nuclear factor kappa-B kinase subunit beta (IKBKB, Homo sapiens, UniProt O14920): 98%
Eukaryotic translation initiation factor 2-alpha kinase 1 (EIF2AK1, Homo sapiens, UniProt Q9BQI3): 83%
Tyrosine-protein kinase BTK (BTK, Homo sapiens, UniProt Q06187): 84%
eIF-2-alpha kinase GCN2, C-terminal kinase domain (EIF2AK4, Homo sapiens, UniProt Q9P2K8, S808G): 100%
Ribosomal protein S6 kinase alpha-5, N-terminal kinase domain (RPS6KA5, Homo sapiens, UniProt O75582): 100%
Mitogen-activated protein kinase kinase kinase 12 (MAP3K12, Homo sapiens, UniProt Q12852): 100%
